{"data": "Measured values gathered from unrelated publications", "note": "Every numbered part comes from another study and shows a few of its results, in no order. Several values in a cell are separate wells, animals, samples, runs or records.", "sequence of UniProt P19784 (whole entry, looked up)": "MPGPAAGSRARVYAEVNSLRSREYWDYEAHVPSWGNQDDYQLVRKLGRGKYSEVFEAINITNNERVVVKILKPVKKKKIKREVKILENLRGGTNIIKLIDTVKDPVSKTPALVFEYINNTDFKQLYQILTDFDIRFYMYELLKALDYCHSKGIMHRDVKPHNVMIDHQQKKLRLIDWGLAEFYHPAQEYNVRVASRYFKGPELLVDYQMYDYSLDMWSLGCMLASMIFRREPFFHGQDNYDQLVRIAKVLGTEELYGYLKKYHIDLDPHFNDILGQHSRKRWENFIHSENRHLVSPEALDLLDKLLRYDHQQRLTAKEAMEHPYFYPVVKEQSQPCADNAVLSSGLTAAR", "sequence of UniProt O14965 (whole entry, looked up)": "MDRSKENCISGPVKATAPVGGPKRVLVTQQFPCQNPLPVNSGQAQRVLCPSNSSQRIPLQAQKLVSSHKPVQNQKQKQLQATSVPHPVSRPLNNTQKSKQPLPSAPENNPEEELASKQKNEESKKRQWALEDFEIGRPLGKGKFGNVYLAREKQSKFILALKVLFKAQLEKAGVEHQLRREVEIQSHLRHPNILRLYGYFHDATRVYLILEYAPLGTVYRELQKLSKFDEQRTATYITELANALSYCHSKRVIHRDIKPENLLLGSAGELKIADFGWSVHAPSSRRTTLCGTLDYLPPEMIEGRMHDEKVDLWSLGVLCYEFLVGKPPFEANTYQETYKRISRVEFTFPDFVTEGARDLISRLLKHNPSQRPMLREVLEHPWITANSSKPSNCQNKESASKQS"}
{"data": "Sample 1", "SMILES": "Cc1cc(C)c(-n2ccn3nc(-c4cccnc4)cc23)cc1NC(=O)c1cc(C#N)cc(S(F)(F)(F)(F)F)c1", "concentration": "0.1 µM"}
{"target": "ERBB2 (Homo sapiens, UniProt P04626)", "observed": "cell-free assay", "technique": "competition with immobilised ligand", "remaining binding": "84.2%"}
{"target": "Tyrosine-protein kinase ABL1, non-phosphorylated (ABL1, Homo sapiens, UniProt P00519, F317L)", "observed": "cell-free assay", "technique": "competition with immobilised ligand", "remaining binding": "26.6%"}
{"target": "GRK3 (Homo sapiens, UniProt P35626)", "observed": "cell-free assay", "technique": "competition with immobilised ligand", "remaining binding": "90.6%"}
{"target": "BRAF (Homo sapiens, UniProt P15056, V600E)", "observed": "cell-free assay", "technique": "competition with immobilised ligand", "remaining binding": "100%"}
{"target": "CIT (Homo sapiens, UniProt O14578)", "observed": "cell-free assay", "technique": "competition with immobilised ligand", "remaining binding": "69.9%"}
{"target": "CASK (Homo sapiens, UniProt O14936)", "observed": "cell-free assay", "technique": "competition with immobilised ligand", "remaining binding": "86.6%"}
{"target": "FLT3 (Homo sapiens, UniProt P36888, D835V)", "observed": "cell-free assay", "technique": "competition with immobilised ligand", "remaining binding": "85.2%"}
{"target": "Tyrosine-protein kinase ABL1, phosphorylated (ABL1, Homo sapiens, UniProt P00519, F317I)", "observed": "binding", "remaining binding": "76.4%"}
{"target": "PTK2 (Homo sapiens, UniProt Q05397)", "observed": "cell-free assay", "technique": "competition with immobilised ligand", "remaining binding": "100%"}
{"target": "Tyrosine-protein kinase ABL1, phosphorylated (ABL1, Homo sapiens, UniProt P00519, E255K)", "observed": "binding", "technique": "competition with immobilised ligand", "remaining binding": "74.5%"}
{"target": "DYRK1B (Homo sapiens, UniProt Q9Y463)", "observed": "cell-free assay", "technique": "competition with immobilised ligand", "remaining binding": "100%"}
{"target": "CDK18 (Homo sapiens, UniProt Q07002)", "observed": "cell-free assay", "technique": "competition with immobilised ligand", "remaining binding": "98.4%"}
{"target": "FLT3 (Homo sapiens, UniProt P36888, F691L/ITD)", "observed": "cell-free assay", "technique": "competition with immobilised ligand", "remaining binding": "69.3%"}
{"target": "Ribosomal protein S6 kinase alpha-5, C-terminal kinase domain (RPS6KA5, Homo sapiens, UniProt O75582)", "observed": "cell-free assay", "technique": "competition with immobilised ligand", "remaining binding": "100%"}
{"target": "PNCK (Homo sapiens, UniProt Q6P2M8)", "observed": "cell-free assay", "technique": "competition with immobilised ligand", "remaining binding": "83.6%"}
{"target": "FER (Homo sapiens, UniProt P16591)", "observed": "cell-free assay", "technique": "competition with immobilised ligand", "remaining binding": "100%"}
{"target": "Tyrosine-protein kinase ABL1, non-phosphorylated (ABL1, Homo sapiens, UniProt P00519, T315I)", "observed": "cell-free assay", "technique": "competition with immobilised ligand", "remaining binding": "33.4%"}
{"target": "PHKG2 (Homo sapiens, UniProt P15735)", "observed": "cell-free assay", "technique": "competition with immobilised ligand", "remaining binding": "78.3%"}
{"target": "MAP4K1 (Homo sapiens, UniProt Q92918)", "observed": "cell-free assay", "technique": "competition with immobilised ligand", "remaining binding": "100%"}
{"target": "STK38 (Homo sapiens, UniProt Q15208)", "observed": "cell-free assay", "technique": "competition with immobilised ligand", "remaining binding": "80.4%"}
{"target": "SRMS (Homo sapiens, UniProt Q9H3Y6)", "observed": "cell-free assay", "technique": "competition with immobilised ligand", "remaining binding": "67.4%"}
{"target": "IRAK3 (Homo sapiens, UniProt Q9Y616)", "observed": "cell-free assay", "technique": "competition with immobilised ligand", "remaining binding": "75.2%"}
{"target": "CAMK2D (Homo sapiens, UniProt Q13557)", "observed": "cell-free assay", "technique": "competition with immobilised ligand", "remaining binding": "89.1%"}
{"target": "PRKCQ (Homo sapiens, UniProt Q04759)", "observed": "cell-free assay", "technique": "competition with immobilised ligand", "remaining binding": "100%"}
{"data": "Sample 2", "Structure (SMILES)": "O=C1CCC(N2Cc3cc(C4CCN(Cc5ccccc5)CC4)ccc3C2=O)C(=O)N1 (stereo not shown)", "mode": "degrader", "CRBN/Zinc finger protein Helios": "CRBN/Zinc finger protein Helios (Homo sapiens, UniProt Q96SW2+Q9UKS7)", "SALL4": "Sal-like protein 4 (SALL4, Homo sapiens, UniProt Q9UJQ4)", "DNA-binding protein Ikaros": "DNA-binding protein Ikaros (Homo sapiens, UniProt Q13422)", "IKZF4": "Zinc finger protein Eos (IKZF4, Homo sapiens, UniProt Q9H2S9)", "Zinc finger protein Aiolos": "Zinc finger protein Aiolos (Homo sapiens, UniProt Q9UKT9)", "sequence of UniProt Q9UKS7 (whole entry, looked up)": "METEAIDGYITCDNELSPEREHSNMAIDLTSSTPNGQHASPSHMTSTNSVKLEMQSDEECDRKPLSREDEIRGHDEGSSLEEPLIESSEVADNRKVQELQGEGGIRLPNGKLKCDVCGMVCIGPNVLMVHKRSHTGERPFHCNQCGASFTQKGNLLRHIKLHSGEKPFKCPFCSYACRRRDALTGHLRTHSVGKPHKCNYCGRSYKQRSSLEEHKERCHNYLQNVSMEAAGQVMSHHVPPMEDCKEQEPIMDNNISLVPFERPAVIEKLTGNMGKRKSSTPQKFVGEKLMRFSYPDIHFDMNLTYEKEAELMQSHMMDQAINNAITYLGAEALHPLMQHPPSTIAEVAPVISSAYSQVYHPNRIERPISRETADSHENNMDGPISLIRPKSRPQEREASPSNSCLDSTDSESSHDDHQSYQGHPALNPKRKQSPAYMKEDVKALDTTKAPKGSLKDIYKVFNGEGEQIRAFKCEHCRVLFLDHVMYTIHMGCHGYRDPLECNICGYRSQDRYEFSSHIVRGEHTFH", "sequence of UniProt Q9UKT9 (whole entry, looked up)": "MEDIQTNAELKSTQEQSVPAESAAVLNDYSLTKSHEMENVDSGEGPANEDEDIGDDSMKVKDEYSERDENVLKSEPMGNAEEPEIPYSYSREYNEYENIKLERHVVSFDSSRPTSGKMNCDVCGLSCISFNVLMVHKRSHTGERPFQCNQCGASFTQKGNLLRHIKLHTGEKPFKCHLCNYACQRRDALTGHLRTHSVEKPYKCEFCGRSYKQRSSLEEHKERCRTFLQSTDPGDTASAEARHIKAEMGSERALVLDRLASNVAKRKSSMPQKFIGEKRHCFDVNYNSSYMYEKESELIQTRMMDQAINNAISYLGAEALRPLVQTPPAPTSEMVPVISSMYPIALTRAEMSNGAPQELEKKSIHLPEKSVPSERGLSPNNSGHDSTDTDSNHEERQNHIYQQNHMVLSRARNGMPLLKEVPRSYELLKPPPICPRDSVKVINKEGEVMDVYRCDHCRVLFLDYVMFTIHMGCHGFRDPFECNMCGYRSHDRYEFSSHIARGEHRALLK", "sequence of UniProt Q96SW2 (whole entry, looked up)": "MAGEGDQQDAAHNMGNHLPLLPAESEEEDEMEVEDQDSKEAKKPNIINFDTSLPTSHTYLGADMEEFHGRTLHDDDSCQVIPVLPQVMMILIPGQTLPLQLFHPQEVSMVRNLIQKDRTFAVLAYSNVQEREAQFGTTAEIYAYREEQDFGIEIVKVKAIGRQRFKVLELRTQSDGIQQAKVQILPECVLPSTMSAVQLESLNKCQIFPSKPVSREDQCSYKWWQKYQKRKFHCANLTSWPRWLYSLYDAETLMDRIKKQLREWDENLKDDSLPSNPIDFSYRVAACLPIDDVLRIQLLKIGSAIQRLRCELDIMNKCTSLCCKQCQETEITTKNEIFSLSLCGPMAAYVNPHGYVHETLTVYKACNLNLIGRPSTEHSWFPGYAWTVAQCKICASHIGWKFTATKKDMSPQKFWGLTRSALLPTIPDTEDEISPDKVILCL", "sequence of UniProt Q9UJQ4 (whole entry, looked up)": "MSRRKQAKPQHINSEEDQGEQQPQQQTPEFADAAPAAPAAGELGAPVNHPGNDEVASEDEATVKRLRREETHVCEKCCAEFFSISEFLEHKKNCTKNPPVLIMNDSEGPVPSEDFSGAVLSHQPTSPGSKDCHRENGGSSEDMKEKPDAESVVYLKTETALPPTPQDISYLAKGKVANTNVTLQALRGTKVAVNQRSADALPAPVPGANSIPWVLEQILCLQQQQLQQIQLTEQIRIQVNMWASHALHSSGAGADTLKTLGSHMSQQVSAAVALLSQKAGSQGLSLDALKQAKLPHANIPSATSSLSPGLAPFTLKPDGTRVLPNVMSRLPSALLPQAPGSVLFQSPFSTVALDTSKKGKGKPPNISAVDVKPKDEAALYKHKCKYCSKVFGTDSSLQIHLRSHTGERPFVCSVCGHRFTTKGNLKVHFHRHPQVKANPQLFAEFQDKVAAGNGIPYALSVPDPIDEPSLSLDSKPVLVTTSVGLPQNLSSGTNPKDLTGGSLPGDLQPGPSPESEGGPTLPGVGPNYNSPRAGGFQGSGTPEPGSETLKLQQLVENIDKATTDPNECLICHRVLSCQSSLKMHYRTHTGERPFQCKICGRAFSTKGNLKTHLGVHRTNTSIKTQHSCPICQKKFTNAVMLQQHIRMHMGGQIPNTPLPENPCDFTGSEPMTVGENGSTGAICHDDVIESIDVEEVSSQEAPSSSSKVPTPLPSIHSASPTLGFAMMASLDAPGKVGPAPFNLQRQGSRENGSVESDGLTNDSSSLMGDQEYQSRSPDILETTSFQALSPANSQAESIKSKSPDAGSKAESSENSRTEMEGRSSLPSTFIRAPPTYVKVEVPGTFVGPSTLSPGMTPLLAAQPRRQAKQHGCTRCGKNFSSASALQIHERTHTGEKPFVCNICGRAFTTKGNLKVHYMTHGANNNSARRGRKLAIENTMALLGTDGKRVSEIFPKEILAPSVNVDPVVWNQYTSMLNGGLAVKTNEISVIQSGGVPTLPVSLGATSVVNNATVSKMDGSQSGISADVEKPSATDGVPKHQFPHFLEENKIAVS", "sequence of UniProt Q13422 (whole entry, looked up)": "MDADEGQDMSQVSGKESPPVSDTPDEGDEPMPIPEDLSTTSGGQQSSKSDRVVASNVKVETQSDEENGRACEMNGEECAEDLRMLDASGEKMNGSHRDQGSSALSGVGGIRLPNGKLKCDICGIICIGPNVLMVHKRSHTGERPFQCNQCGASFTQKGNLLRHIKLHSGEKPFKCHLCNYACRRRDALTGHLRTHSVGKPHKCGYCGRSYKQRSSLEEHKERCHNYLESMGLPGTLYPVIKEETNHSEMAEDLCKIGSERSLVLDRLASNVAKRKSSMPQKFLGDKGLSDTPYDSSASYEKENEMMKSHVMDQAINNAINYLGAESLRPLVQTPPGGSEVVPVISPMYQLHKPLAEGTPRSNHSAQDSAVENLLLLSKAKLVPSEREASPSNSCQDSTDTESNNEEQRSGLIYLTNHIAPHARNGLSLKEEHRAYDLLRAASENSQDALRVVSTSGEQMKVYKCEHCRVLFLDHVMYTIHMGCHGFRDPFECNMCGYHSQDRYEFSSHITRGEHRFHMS", "sequence of UniProt Q9H2S9 (whole entry, looked up)": "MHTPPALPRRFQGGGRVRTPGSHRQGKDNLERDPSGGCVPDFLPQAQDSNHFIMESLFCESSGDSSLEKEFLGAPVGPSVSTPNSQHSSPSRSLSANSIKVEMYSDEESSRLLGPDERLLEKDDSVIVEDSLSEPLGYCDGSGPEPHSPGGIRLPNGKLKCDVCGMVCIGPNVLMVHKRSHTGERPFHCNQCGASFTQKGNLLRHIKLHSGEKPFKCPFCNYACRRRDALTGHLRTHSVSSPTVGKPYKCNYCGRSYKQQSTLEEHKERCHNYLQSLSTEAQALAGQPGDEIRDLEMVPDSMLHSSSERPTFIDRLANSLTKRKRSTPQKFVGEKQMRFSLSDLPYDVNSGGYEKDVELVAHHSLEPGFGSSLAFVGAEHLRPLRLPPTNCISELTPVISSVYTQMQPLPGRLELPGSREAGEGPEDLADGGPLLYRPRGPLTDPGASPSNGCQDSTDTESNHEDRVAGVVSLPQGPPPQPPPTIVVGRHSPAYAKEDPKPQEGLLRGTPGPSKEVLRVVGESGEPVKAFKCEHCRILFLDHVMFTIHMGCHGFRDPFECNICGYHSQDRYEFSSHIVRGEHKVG"}
{"target": "CRBN/Zinc finger protein Helios", "technique": "flow cytometry", "cell line": "primary human regulatory T cells", "concentration": "0.01235 µM", "time": "6 h", "remaining protein": "86.8%"}
{"target": "SALL4", "technique": "HiBiT", "cell line": "HEK293", "concentration": "10 µM", "remaining protein": "44.9% and 46.2%"}
{"target": "DNA-binding protein Ikaros", "technique": "HiBiT", "cell line": "HEK293", "concentration": "0.0005081 µM", "remaining protein": "103% and 98.3%"}
{"target": "SALL4", "technique": "HiBiT", "cell line": "HEK293", "concentration": "0.001524 µM", "remaining protein": "70% and 71.5%"}
{"target": "GSPT1 (Homo sapiens, UniProt P15170)", "technique": "HiBiT", "cell line": "HEK293", "concentration": "0.04115 µM", "time": "6 h", "remaining protein": "91.4%"}
{"target": "IKZF4", "technique": "HiBiT", "cell line": "HEK293", "concentration": "0.3333 µM", "time": "3 h", "remaining protein": "126%"}
{"target": "IKZF4", "technique": "HiBiT", "cell line": "HEK293", "concentration": "0.0001524 µM", "time": "3 h", "remaining protein": "115%"}
{"target": "DNA-binding protein Ikaros", "technique": "HiBiT", "cell line": "HEK293", "concentration": "0.01372 µM", "remaining protein": "94.7% and 97.1%"}
{"target": "Zinc finger protein Aiolos", "technique": "HiBiT", "cell line": "HEK293", "concentration": "0.0001694 µM", "time": "6 h", "remaining protein": "98.6%"}
{"target": "Zinc finger protein Aiolos", "technique": "HiBiT", "cell line": "HEK293", "concentration": "0.0005081 µM", "remaining protein": "87.9% and 92.3%"}
{"target": "CRBN/Zinc finger protein Helios", "technique": "flow cytometry", "cell line": "primary human regulatory T cells", "concentration": "0.01235 µM", "time": "3 h", "remaining protein": "107%"}
{"target": "CRBN/Zinc finger protein Helios", "technique": "flow cytometry", "cell line": "primary human regulatory T cells", "concentration": "0.1111 µM", "time": "6 h", "remaining protein": "62.7%"}
{"data": "Sample 3", "SMILES": "COc1ccc(S(=O)(=O)N(CCO)c2ccccc2CN(C)CC=Cc2ccc(Cl)cc2)cc1", "observed": "enzyme activity", "mode": "inhibitor", "concentration": "0.5 µM", "reference": "control"}
{"target": "NTRK3 (Homo sapiens, UniProt Q16288)", "remaining activity [%]": 95.3}
{"target": "Cyclin-dependent kinase 2, with cyclin A (CDK2, Homo sapiens, UniProt P24941)", "remaining activity [%]": 99.7}
{"target": "RET (Homo sapiens, UniProt P07949)", "remaining activity [%]": 103}
{"target": "DMPK (Homo sapiens, UniProt Q09013)", "remaining activity [%]": 105}
{"target": "DYRK4 (Homo sapiens, UniProt Q9NR20)", "remaining activity [%]": 99.6}
{"target": "MAP3K8 (Homo sapiens, UniProt P41279)", "remaining activity [%]": 96.3}
{"target": "MAPK10 (Homo sapiens, UniProt P53779)", "remaining activity [%]": 95.5}
{"target": "CAMK1G (Homo sapiens, UniProt Q96NX5)", "remaining activity [%]": 101}
{"target": "PTK2B (Homo sapiens, UniProt Q14289)", "remaining activity [%]": 106}
{"target": "SLK (Homo sapiens, UniProt Q9H2G2)", "remaining activity [%]": 103}
{"target": "MAP3K2 (Homo sapiens, UniProt Q9Y2U5)", "remaining activity [%]": 95.3}
{"target": "PRKD1 (Homo sapiens, UniProt Q15139)", "remaining activity [%]": 100}
{"target": "BRSK1 (Homo sapiens, UniProt Q8TDC3)", "remaining activity [%]": 98.4}
{"target": "CSNK2A2 (Homo sapiens, UniProt P19784)", "remaining activity [%]": 93.7}
{"target": "Aurora kinase A (AURKA, Homo sapiens, UniProt O14965)", "remaining activity [%]": 97.5}
{"target": "CDK7 (Homo sapiens, UniProt P50613)", "remaining activity [%]": 97.6}
{"target": "PKN2 (Homo sapiens, UniProt Q16513)", "remaining activity [%]": 101}
{"target": "NEK9 (Homo sapiens, UniProt Q8TD19)", "remaining activity [%]": 91.9}
{"target": "CAMK1D (Homo sapiens, UniProt Q8IU85)", "remaining activity [%]": 103}
{"target": "HIPK3 (Homo sapiens, UniProt Q9H422)", "remaining activity [%]": 104}
{"target": "ROS1 (Homo sapiens, UniProt P08922)", "remaining activity [%]": 95.4}
{"target": "ROCK2 (Homo sapiens, UniProt O75116)", "remaining activity [%]": 94.6}
{"target": "GRK5 (Homo sapiens, UniProt P34947)", "remaining activity [%]": 94.1}
{"data": "Sample 4", "target": "Calcium/calmodulin-dependent protein kinase type II subunit alpha (CAMK2A, Homo sapiens, UniProt Q9UQM7)", "observed": "enzyme activity", "mode": "inhibitor", "concentration": "10 µM", "sequence of UniProt Q9UQM7 (whole entry, looked up)": "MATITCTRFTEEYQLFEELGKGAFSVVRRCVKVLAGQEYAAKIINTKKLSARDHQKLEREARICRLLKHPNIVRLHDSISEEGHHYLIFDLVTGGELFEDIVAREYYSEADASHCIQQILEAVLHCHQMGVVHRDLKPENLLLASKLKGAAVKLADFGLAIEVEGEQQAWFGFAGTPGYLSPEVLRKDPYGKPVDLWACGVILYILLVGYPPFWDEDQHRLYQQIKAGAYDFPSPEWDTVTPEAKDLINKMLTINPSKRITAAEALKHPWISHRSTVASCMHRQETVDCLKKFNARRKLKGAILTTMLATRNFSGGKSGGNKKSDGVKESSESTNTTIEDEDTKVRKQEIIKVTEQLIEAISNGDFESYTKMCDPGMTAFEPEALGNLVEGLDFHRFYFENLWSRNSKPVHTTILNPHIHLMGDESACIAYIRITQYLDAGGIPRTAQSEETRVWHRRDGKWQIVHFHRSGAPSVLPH"}
{"Structure (SMILES)": "O=c1c(O)c(-c2ccc(O)cc2)oc2c(O)c(O)cc(O)c12", "inhibition": "-2%"}
{"Structure (SMILES)": "O=C(O)c1ccccc1OP(=O)(O)O", "inhibition": "1%"}
{"Structure (SMILES)": "NS(=O)(=O)c1cc2c(cc1Cl)N=CNS2(=O)=O", "inhibition": "-2%"}
{"Structure (SMILES)": "CC[C@H](C)[C@H](N)C(=O)O", "inhibition": "-6%"}
{"Structure (SMILES)": "O=C(O)CCCCCCCC(=O)O", "inhibition": "16%"}
{"Structure (SMILES)": "CC(C)=CCC/C(C)=C/Cc1c(O)c(CC=C(C)C)c2c(c1O)C(=O)C1=C[C@@H]3C[C@H]4C(C)(C)O[C@@](C/C=C(/C)C(=O)O)(C3=O)[C@@]14O2", "inhibition": "-77%"}
{"Structure (SMILES)": "Clc1ccc(C(Cn2ccnc2)OCc2ccc(Sc3ccccc3)cc2)c(Cl)c1 (stereo not shown)", "inhibition": "-6%"}
{"Structure (SMILES)": "O=C(/C=C/c1ccc(O)cc1)c1c(O)cc(O)cc1O", "inhibition": "35%"}
{"Structure (SMILES)": "CC(C)=CCC[C@](C)(O[C@@H]1O[C@H](CO)[C@@H](O)[C@H](O)[C@H]1O)[C@H]1CC[C@]2(C)[C@@H]1[C@H](O)C[C@@H]1[C@@]3(C)CC[C@H](O)C(C)(C)[C@@H]3[C@@H](O)C[C@]12C", "inhibition": "-13%"}
{"Structure (SMILES)": "CC1(C)NC(=O)N(c2ccc([N+](=O)[O-])c(C(F)(F)F)c2)C1=O", "inhibition": "-12%"}
{"Structure (SMILES)": "CC(=O)OC(C)OC(=O)C(C)c1ccc(-c2ccccc2)c(F)c1 (stereo not shown)", "inhibition": "-7%"}
{"Structure (SMILES)": "CCN1CCCC1CNC(=O)c1cc(S(=O)(=O)CC)c(N)cc1OC (stereo not shown)", "inhibition": "0%"}
{"Structure (SMILES)": "O=C(/C=C/c1cccc(S(=O)(=O)Nc2ccccc2)c1)NO", "inhibition": "-8%"}
{"Structure (SMILES)": "COc1ccc2ccc(=O)oc2c1", "inhibition": "-13%"}
{"note": "For quick reference, copied from above (sample 1):"}
{"target": "PRKCQ (Homo sapiens, UniProt Q04759)", "observed": "cell-free assay", "technique": "competition with immobilised ligand", "remaining binding": "100%"}
{"target": "GRK3 (Homo sapiens, UniProt P35626)", "observed": "cell-free assay", "technique": "competition with immobilised ligand", "remaining binding": "90.6%"}
{"target": "MAP4K1 (Homo sapiens, UniProt Q92918)", "observed": "cell-free assay", "technique": "competition with immobilised ligand", "remaining binding": "100%"}
{"target": "ERBB2 (Homo sapiens, UniProt P04626)", "observed": "cell-free assay", "technique": "competition with immobilised ligand", "remaining binding": "84.2%"}
{"target": "Ribosomal protein S6 kinase alpha-5, C-terminal kinase domain (RPS6KA5, Homo sapiens, UniProt O75582)", "observed": "cell-free assay", "technique": "competition with immobilised ligand", "remaining binding": "100%"}
{"target": "Tyrosine-protein kinase ABL1, non-phosphorylated (ABL1, Homo sapiens, UniProt P00519, T315I)", "observed": "cell-free assay", "technique": "competition with immobilised ligand", "remaining binding": "33.4%"}
{"target": "BRAF (Homo sapiens, UniProt P15056, V600E)", "observed": "cell-free assay", "technique": "competition with immobilised ligand", "remaining binding": "100%"}
{"target": "SRMS (Homo sapiens, UniProt Q9H3Y6)", "observed": "cell-free assay", "technique": "competition with immobilised ligand", "remaining binding": "67.4%"}
{"target": "FER (Homo sapiens, UniProt P16591)", "observed": "cell-free assay", "technique": "competition with immobilised ligand", "remaining binding": "100%"}
{"target": "STK38 (Homo sapiens, UniProt Q15208)", "observed": "cell-free assay", "technique": "competition with immobilised ligand", "remaining binding": "80.4%"}
